Results gathered from unrelated publications.
A part holds a random share of what one study measured. Positions count from the first letter of the parent shown.

Block 1 — technique: RNA Bind-n-Seq; molecule type: RNA; matrix: in vitro; tested at: 365 nM; reference: no-protein control; reading: higher = stronger binding
Target: RNA binding protein fox-1 homolog 2, RRM domain, GST-SBP tag (RBFOX2, Homo sapiens, UniProt O43251-10, residues 100-194)
Setting: natural RNA segment, single round, ends assumed
Constant ends, left off below: GGGAGUUCUACAGUCCGACGAUC … UGGAAUUCUCGGGUGCCAA
Target sequence (chain): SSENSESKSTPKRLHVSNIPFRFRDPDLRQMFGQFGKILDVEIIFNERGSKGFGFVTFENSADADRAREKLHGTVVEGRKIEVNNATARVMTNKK
| Oligonucleotide | RBNS enrichment (R) |
| --- | --- |
| CAGAGGACAGCAGCAGCCACUGCCCUCACCUUUAACCCCUUGCCUUGCCUCCCAGGGAUUUGUGAGCCUUUCCUAGAAGGUCCUGUGCUCUCCUCCUUCUGUCCCCUCCC | 2.27 |
| UGUGGUUCCUUUAAAUGCCCUUACCUCUCCCAAGAGGUUGUUUUGUUUUGUUUUCCUCCCUUUUCUCUUGAAUUUUAGCAUCCACAUAAAUUAUGCUUCCAACCUUGUAU | 1.62 |
| UUCCCAGUCCCAGCAGGCAGAAUGCCCAAAACCAGGAGCACGAAGGCCUGUCAUCCAUGGGGCCAUUGCAGGCACUCUGCCGCCCGACCUUGAGGGCUGUGCCAAUCCUA | 1.29 |
| UCACAGGGAAAAGAAGGAUUAUAUAGACUUCCUAUCCCUAGAGUUUAUAAAUGUCAACUAUAUAAAAAAAGCUCAAAACAGUGUUAAAGGAAUGAACAGUAGAAUUUUAA | 0.948 |
| UCAUACGCGAAGGCCAUAUGGCCAUCGUGUCAGCAGAGAGAGUCUCUGUACACAGCCCCGUGAACCCUGAGGAGUGGAGUCAUACACGAAGGGCGUGUGGCCAUCGUGUC | 0.257 |
| GAAAAAAGUUUAAACUACAUUCAUGUUCUUGUUCUGUGUCACUCGGCCCUGGGUAGUCUACCAUUUACUUCACCCCAAGUCCUGCUGCCCAUCCAGUUGGGAAGCCAUGA | 0.29 |
| GAGGUAACUAAAUAGCCAUUAGAAGAAGAAGUGAAGCCUUUCAUGCAGGAUGAUAGAUCUAACUUAUCAAUGUACUGUCACAGUACAUUAAUCGUUUUAUUUGAGUAGGU | 0.702 |
| CCUGCCCCAUCCCCAGGGCCGCCAGGCUUGCUCCGUUUGCUUUGAGUUUUUAGACCCCAGAGGGAGAUGAGCUUUUCCAAGCUGUGUCUGGGCCAGAGCCUCUCCUUGCC | 0.762 |
| ACCUCCAGGUGGAGGAACCACACGGCAGAGUUCUGUGUGUCUGUGUUGAAGCUAGAGGCGGCUAGAGCAACCCUGGCUGGUAGAGGCCUGGCACACCCUAGUAGCCGGGU | 0.745 |
| ACAAAGCCUGGGGUACCCGCAUCUGGUUUGGAACCCUGAGUUUUGUUGUUCAGUCAGCAGCCCUAGUCAUGGUUGCCAAUAGUUUUCCCAAGCAAGGCGUCACCGAGGAG | 0.244 |
| AAUUUUACAUUGUAUUAGAUUUUCUGAUUCUUUUGUAAAUACAGAACUUAAAUAGAAGGCAACAGGAAAUUUAUAUAGGAACUAUUUUCAUUCCACUUGUGUAAGUUAAG | 0.976 |
| UUUCUGCCCCAGCCAAAAUAAUCUUGUGCCAAAAGAUUAAAGGUUUGCCUCAAAAUGUCCCUGUUUGAAAGAUUAGCACAAAAGUCUUGAUAGCACAACACAAAUUCCAU | 0.893 |

Block 2 — technique: protein binding microarray; molecule type: double-stranded DNA, one strand shown; matrix: in vitro; tested at: not given; reference: not given; reading: higher = stronger binding
Target: Histone acetyltransferase KAT6A, both winged helices, GST fusion (KAT6A, Homo sapiens, UniProt Q92794, residues 1-181)
Setting: 8-mer, flanks averaged, mean of 2 arrays, mostly near background
Residues (chain): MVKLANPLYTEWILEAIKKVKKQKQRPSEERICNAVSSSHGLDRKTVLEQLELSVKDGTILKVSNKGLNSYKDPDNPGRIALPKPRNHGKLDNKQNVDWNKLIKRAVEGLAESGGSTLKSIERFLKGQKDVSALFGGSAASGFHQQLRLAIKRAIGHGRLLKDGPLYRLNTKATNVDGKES
| Oligonucleotide | E-score |
| --- | --- |
| ATCTTGAG | -0.18 |
| CTTTGCTA | -0.166 |
| GCTATAGA | -0.0155 |
| CGCTCTCC | 0.0516 |
| CTCTCAGA | -0.153 |
| CAATACAG | -0.0235 |
| CTCCTGCA | -0.132 |
| GTTGAGGA | -0.0449 |
| ACCTGAGC | 0.0348 |
| ATTCATGC | -0.0515 |
| GGGTTAAA | -0.00593 |
| CTGTGGAC | -0.194 |
| ACGACTCG | 0.0167 |
| ATCTGGAG | -0.133 |
| CCATGAGA | -0.0394 |
| ATTTCAGG | -0.0416 |
| AAGGCTGT | -0.11 |
| AATGCTAA | -0.141 |
| AAACTCCT | -0.152 |
| GTTATTCA | -0.00987 |
| ACTCGTCT | -0.163 |
| GCGACTCC | 0.0686 |
| ACTATACA | -0.11 |
| AAATCAGT | 0.0388 |
| AGGACACT | -0.171 |

Block 3 — technique: RNA Bind-n-Seq; molecule type: RNA; matrix: in vitro; tested at: not given; reference: input RNA pool; reading: higher = stronger binding
Target: RING finger protein unkempt homolog, zinc fingers 1-6, GST-SBP tag (UNK, Homo sapiens, UniProt Q9C0B0, residues 30-357)
Setting: RNA with constant flanks, human-mouse chimeric sites, ends assumed
Constant ends, left off below: GGGAGUUCUACAGUCCGACGAUC … CAACAGAGGAUUGAGCAUCA
Residues (chain): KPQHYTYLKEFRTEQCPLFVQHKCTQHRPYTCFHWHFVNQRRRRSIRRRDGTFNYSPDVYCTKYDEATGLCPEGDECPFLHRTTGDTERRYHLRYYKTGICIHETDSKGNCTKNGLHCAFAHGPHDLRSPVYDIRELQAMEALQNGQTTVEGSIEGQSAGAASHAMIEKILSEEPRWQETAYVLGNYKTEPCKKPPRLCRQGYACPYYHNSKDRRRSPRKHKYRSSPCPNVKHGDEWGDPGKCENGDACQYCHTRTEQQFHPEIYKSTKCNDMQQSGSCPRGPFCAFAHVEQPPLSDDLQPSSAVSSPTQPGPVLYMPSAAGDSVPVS
| Oligonucleotide | bound/input enrichment [ratio] |
| --- | --- |
| CGCUGGCCCAAGCUGAUGGACUCUGAUGGCCUCCAUCUCUCAGGCACGUUUGCCUUCUCUUAGUCCCUGUUUUCGGGUCACAAAGCUUCUCAGUACUGUGGUUUGAAAGCACCAGCUUUG | 0.129 |
| CAGCUGCAGACAGAAAAGGAUGAGAAGGAGCUGUAUAAGGUACAUUUGAAGAAUACAGAAAUAGAAAAUACGAAGCUUGUGUCAGAGAUACAGACUUUAAAAAAUUUAGAUGGGAACAAA | 2.79 |
| GCGAACAGGACUACAGAAAUGCUGGUAAUUUCAGUCACUUGCUGAUGACUUCUGAUGUCCCAGCAAAUAAUGCCACAGUUGACUGCUGAGAAGAUACUUCUGAGGACCCACGUCUAAGGU | 0.129 |
| AAAGCCCAAGUAUUUUGAAAAAAUUCAAACAGAUUUGACAAGGGUAGCCAGCUUGGAGUCUAGCAACUUGCCAAUGUUGCUUACCAACUGGGGGCUUGUUUUUCUUUUCUUCUUUCAAAU | 0.168 |
| GCGGCAGAAUCAUGGUGGACAUAAUGCAGCUCCCCAAAGCGCGCGUCAACGCCAGCAUGUUACCACAAUUCAUCGACCGGCCCGUGUGCUUCGUGGGGAAGCUGGAAAAGAUUCAUCCCA | 0.104 |
| GACUUUGGGACUGGUCCUCGCAACGCAGCCUACUAUAGCCCUCAUGGACAUAUAUUAGUGCUGGCUGGAUUUGGAAAUCUUCGAGGACAAAUGGAAGUAUGGGAUGUUAAAAACUACAAG | 0.415 |
| AAAGCCCUUGAAGAAAAAAAAAACUCGAACAGAUUUGACAAGGGUAGCCAGCUUGGAGUCUAGCAACUUGCCAAUGUGUUUACCAAUCUGGGGGCUUGUUUUUCUUUCCCUUCCUUAAAU | 0.45 |
| AGGAGGAGAUUAAAGGGUGAGAGUGGGGUGGAAGACUGUGUCAUGGCUCUGGAGACACUGUUCAGUGUCCUGCUUUCUCUGUGCAGACUGAUGGCCCCUUACACGCCUUUUCUCACUGAG | 0.0842 |
| UGUAGUUGAUCCCCUGCUCAUUUUUCUCUUUUCUUUCUUUCCUUUAGGAAAAGCCUAAAGAUUAGGUUGUAAGAAAAACAGAAGCCAUGUUUCGAAGGAAGACCUGUCAGGUAUUUCGUC | 0.0719 |
| CGGAGCCCUCCUCUCCCACAGGCCCAAGAUAUAACCCACCAGUGCCUUCUGUCUGCUUGUCAGCUCUGUCAAUCACGCCUGUCCUCUCACGCCCACACCAAGUGCCCCCACCCCUAAGGG | 0.367 |
| UUGGAAGGACCAGAGCCUAAUCAACUGAAACCACUAGUCAUACAGGCUAUGCCCACCCUAAUAGAACUAAUGAAAGACCCCAGUGUAGUUGUUCGAGAUACAGCUGCGUGGACUGUGGGC | 1.1 |

Block 4 — target: CCNA2, cyclin fold, Cln2 fusion (human); technique: yeast growth competition, sequencing; matrix: yeast; setting: strong parent motif; reference: not given; reading: higher = stronger binding
Starting sequence: RB1 docking peptide (human); PKPLKKLRFDIEG
| Variant | normalised enrichment score |
| --- | --- |
| PKPLKKERFDIEG [L7E] | -0.0921 |
| PKPLKKLRFAIEG [D10A] | 2.02 |
| PKPLKKLRFDIVG [E12V] | 1.13 |
| PKGLKKLRFDIEG [P3G] | 1.77 |
| PKPLKKLSFDIEG [R8S] | 1.6 |
| PLPLKKLRFDIEG [K2L] | 1.51 |
| TKPLKKLRFDIEG [P1T] | 1.61 |
| PKPLKKLRFWIEG [D10W] | 2.04 |
| PKPLKKLRFDIPG [E12P] | 1.72 |
| PKPLKKLCFDIEG [R8C] | 0.923 |
| PKPLKKLRIDIEG [F9I] | 0.125 |
| PKPHKKLRFDIEG [L4H] | 1.48 |
| PKPLKKIRFDIEG [L7I] | 0.801 |
| PIPLKKLRFDIEG [K2I] | 2.28 |
| PKPLKKLKFDIEG [R8K] | 0.984 |
| PKPLKKLRFDQEG [I11Q] | 0.338 |
| PKWLKKLRFDIEG [P3W] | 1.93 |
| PKPLKKLVFDIEG [R8V] | 1.65 |
| PKRLKKLRFDIEG [P3R] | 1.11 |
| PRPLKKLRFDIEG [K2R] | 0.813 |
| PKPLKKLRFDIEY [G13Y] | -0.206 |
| PKPLKKLRFDPEG [I11P] | 1.63 |
| EKPLKKLRFDIEG [P1E] | 0.836 |
| QKPLKKLRFDIEG [P1Q] | 1.16 |
| PTPLKKLRFDIEG [K2T] | 0.128 |

A few entries again (block 1):
| Oligonucleotide | RBNS enrichment (R) |
| --- | --- |
| GAGGUAACUAAAUAGCCAUUAGAAGAAGAAGUGAAGCCUUUCAUGCAGGAUGAUAGAUCUAACUUAUCAAUGUACUGUCACAGUACAUUAAUCGUUUUAUUUGAGUAGGU | 0.702 |
| CCUGCCCCAUCCCCAGGGCCGCCAGGCUUGCUCCGUUUGCUUUGAGUUUUUAGACCCCAGAGGGAGAUGAGCUUUUCCAAGCUGUGUCUGGGCCAGAGCCUCUCCUUGCC | 0.762 |
| ACCUCCAGGUGGAGGAACCACACGGCAGAGUUCUGUGUGUCUGUGUUGAAGCUAGAGGCGGCUAGAGCAACCCUGGCUGGUAGAGGCCUGGCACACCCUAGUAGCCGGGU | 0.745 |
| ACAAAGCCUGGGGUACCCGCAUCUGGUUUGGAACCCUGAGUUUUGUUGUUCAGUCAGCAGCCCUAGUCAUGGUUGCCAAUAGUUUUCCCAAGCAAGGCGUCACCGAGGAG | 0.244 |
| AAUUUUACAUUGUAUUAGAUUUUCUGAUUCUUUUGUAAAUACAGAACUUAAAUAGAAGGCAACAGGAAAUUUAUAUAGGAACUAUUUUCAUUCCACUUGUGUAAGUUAAG | 0.976 |
| UUUCUGCCCCAGCCAAAAUAAUCUUGUGCCAAAAGAUUAAAGGUUUGCCUCAAAAUGUCCCUGUUUGAAAGAUUAGCACAAAAGUCUUGAUAGCACAACACAAAUUCCAU | 0.893 |
